Results gathered from unrelated publications.
± marks the error that the study gave.
Tumor necrosis factor receptor superfamily member 9/Nectin-4: Tumor necrosis factor receptor superfamily member 9/Nectin-4 (Homo sapiens, UniProt Q07011+Q96NY8)
Chain of UniProt Q07011 (whole entry, looked up): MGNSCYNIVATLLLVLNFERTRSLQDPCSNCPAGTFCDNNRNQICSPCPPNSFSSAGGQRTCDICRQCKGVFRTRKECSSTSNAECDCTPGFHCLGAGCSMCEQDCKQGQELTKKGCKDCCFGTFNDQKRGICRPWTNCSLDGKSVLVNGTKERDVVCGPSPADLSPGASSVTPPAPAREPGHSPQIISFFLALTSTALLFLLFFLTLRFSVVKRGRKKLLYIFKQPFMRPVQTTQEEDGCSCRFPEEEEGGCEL
Chain of UniProt Q96NY8 (whole entry, looked up): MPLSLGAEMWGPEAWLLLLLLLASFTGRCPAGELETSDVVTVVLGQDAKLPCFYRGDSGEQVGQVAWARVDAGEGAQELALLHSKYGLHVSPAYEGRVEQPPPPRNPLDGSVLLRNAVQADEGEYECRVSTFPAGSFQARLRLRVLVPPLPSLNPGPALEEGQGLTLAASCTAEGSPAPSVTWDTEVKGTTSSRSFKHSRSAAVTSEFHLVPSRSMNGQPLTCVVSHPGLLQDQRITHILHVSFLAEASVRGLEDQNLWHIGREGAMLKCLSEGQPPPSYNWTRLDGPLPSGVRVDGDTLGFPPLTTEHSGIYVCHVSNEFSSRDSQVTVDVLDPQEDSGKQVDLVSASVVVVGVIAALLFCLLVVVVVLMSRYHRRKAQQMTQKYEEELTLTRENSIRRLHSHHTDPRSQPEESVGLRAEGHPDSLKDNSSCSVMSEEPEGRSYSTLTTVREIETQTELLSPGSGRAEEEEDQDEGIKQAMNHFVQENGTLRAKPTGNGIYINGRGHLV
ABCG2: Broad substrate specificity ATP-binding cassette transporter ABCG2 (ABCG2, Homo sapiens, UniProt Q9UNQ0)
Chain of UniProt Q9UNQ0 (whole entry, looked up): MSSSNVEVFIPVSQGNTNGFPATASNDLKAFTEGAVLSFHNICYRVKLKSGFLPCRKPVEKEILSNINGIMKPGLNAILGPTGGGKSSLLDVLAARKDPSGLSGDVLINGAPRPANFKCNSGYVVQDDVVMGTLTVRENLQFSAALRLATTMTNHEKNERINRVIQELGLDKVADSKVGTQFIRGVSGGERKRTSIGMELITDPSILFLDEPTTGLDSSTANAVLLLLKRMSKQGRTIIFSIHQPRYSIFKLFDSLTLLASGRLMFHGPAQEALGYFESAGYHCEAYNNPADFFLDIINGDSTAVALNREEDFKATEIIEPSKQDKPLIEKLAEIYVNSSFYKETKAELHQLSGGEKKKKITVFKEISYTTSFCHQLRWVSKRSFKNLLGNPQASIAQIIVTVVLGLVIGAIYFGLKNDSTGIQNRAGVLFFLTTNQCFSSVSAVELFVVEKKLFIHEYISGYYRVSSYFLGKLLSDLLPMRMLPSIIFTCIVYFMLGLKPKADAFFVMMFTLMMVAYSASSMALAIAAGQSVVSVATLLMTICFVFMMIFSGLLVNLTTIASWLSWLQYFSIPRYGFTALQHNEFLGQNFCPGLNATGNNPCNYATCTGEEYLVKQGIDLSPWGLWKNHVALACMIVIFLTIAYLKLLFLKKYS
SLCO1B3: Solute carrier organic anion transporter family member 1B3 (SLCO1B3, Homo sapiens, UniProt Q9NPD5)
Chain of UniProt Q9NPD5 (whole entry, looked up): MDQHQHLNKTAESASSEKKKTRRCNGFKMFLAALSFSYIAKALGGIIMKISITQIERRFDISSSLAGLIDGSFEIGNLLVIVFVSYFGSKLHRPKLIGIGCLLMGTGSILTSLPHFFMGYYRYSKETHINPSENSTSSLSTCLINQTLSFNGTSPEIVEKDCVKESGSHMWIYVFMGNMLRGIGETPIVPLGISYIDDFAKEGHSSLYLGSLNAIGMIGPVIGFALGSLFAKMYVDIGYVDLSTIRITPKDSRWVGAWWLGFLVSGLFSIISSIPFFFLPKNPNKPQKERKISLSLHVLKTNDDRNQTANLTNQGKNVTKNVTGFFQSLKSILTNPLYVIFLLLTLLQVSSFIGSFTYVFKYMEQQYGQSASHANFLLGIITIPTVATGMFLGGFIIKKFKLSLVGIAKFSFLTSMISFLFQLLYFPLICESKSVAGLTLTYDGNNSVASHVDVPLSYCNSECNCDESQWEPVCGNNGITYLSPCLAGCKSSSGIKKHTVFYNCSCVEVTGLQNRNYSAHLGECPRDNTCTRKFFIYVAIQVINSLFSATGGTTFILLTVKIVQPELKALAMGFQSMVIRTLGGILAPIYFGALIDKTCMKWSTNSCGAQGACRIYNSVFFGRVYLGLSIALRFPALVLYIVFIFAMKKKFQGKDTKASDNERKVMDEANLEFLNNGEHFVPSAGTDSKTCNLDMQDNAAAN
Chain of UniProt Q9UHI6 (whole entry, looked up): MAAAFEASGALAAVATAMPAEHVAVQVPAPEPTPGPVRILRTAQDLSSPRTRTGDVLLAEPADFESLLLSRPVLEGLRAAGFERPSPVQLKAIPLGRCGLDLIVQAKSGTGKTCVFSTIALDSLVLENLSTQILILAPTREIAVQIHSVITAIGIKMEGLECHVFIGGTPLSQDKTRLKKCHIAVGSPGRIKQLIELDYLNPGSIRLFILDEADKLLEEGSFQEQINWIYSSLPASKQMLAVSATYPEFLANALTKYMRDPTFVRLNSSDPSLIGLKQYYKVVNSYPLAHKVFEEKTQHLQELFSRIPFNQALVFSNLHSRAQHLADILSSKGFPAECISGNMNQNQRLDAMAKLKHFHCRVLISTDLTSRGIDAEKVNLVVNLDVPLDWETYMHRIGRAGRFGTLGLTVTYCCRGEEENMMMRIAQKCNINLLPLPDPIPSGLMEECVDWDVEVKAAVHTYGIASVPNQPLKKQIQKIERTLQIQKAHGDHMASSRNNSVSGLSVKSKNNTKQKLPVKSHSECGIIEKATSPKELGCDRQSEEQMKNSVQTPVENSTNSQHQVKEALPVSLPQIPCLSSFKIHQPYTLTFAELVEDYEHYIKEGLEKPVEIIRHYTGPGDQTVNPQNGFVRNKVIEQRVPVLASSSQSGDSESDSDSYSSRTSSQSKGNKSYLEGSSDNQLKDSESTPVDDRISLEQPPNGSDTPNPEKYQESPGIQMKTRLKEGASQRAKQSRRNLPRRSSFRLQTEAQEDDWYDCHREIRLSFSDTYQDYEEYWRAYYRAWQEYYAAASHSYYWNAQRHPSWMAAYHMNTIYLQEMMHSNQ

CCCC[C@@H]1NC(=O)[C@H](Cc2ccc(O)cc2)NC(=O)[C@@H]2CCCN2C(=O)[C@H](CC(=O)O)NC(=O)[C@H](C)NC(=O)[C@H](Cc2ccccc2)NC(=O)[C@@H]2CSCCC(=O)N3CN(CN(C3)C(=O)CCSCCC(=O)N[C@@H](CC(C)(C)C)C(=O)N3CCC[C@H]3C(=O)N[C@@H](CCC(=O)O)C(=O)N[C@H](CCCCNC(=O)CCc3cn(CCOCCOCCOCCN(CCOCCOCCOCCC(=O)N[C@H]4CSCCC(=O)N5CN6CN(C5)C(=O)CCSC[C@H](NC(=O)[C@@H](CC(=O)O)NC(=O)[C@H](Cc5cccc7ccccc57)NC(=O)[C@@H]5CCCN5C4=O)C(=O)N[C@@H](CCSC)C(=O)N[C@@H](CCCCNC(=N)N)C(=O)N[C@@H](CC(=O)O)C(=O)N[C@@H](Cc4c[nH]c5ccccc45)C(=O)N[C@@H](CO)C(=O)N[C@@H]([C@@H](C)O)C(=O)N4CCC[C@H]4C(=O)N4C[C@H](O)C[C@H]4C(=O)N[C@@H](Cc4c[nH]c5ccccc45)C(=O)N[C@H](C(N)=O)CSCCC6=O)CCOCCOCCOCCn4cc(CCC(=O)NCCCC[C@H]5NC(=O)[C@H](CCC(=O)O)NC(=O)[C@@H]6CCCN6C(=O)[C@H](CC(C)(C)C)NC(=O)CCSCCC(=O)N6CN7CN(C6)C(=O)CCSC[C@H](NC(=O)[C@H](Cc6ccc(O)cc6)NC(=O)[C@@H]6CCCN6C5=O)C(=O)N[C@@H](Cc5ccccc5)C(=O)N[C@@H](C)C(=O)N[C@@H](CC(=O)O)C(=O)N5CCC[C@H]5C(=O)N[C@@H](Cc5ccc(O)cc5)C(=O)N[C@@H](CCCC)C(=O)NCCSCCC7=O)nn4)nn3)C(=O)N3CCC[C@H]3C(=O)N[C@@H](Cc3ccc(O)cc3)C(=O)N2)C(=O)CCSCCNC1=O  Emax (Tumor necrosis factor receptor superfamily member 9/Nectin-4; reporter gene, agonist, luciferase reporter; CD137 Jurkat reporter with HT-1376; 6 h, geometric mean; reference: wells without compound): 71 fold
CCCCN(CCCC)CCCNC(=O)c1ccc2nc(N3CCCCC3)sc2c1  maximum response (Vero-E6; CellTiter-Glo ATP; 72 h, retest 8-point duplicates; reference: DMSO 0%, hyamine -100%, more negative, more toxic): -7.19%
NC(=O)c1ncn([C@@H]2O[C@H](CO)[C@@H](O)[C@H]2O)n1  inhibition (ABCG2; transport, inhibitor; 100 µM, 5 (unit not given), pH 7, added: CCK-8): 12.9%
O=c1cc(-c2ccccc2)oc2c1ccc1ccccc12  IC50 (cytochrome P450 human; enzyme activity, inhibitor; pooled human liver microsomes; 120 min, pH 7.4): > 10 µM
CCOC(=O)c1c(CSc2ccccc2)n(C)c2cc(Br)c(O)c(CN(C)C)c12  inhibition (ABCG2; transport, inhibitor; 100 µM, 5 (unit not given), pH 7, added: CCK-8): 35%
CC1(C)[C@H](C(=O)O[C@H](C#N)c2cccc(Oc3ccccc3)c2)[C@@H]1C=C(Br)Br  enzyme contribution to CLint (human CYP1A2; IVIVE from expressed enzymes; human, liver, in vivo scaled; 0.1 µM, age-specific): 0.4%
COc1ccc2cc1Oc1ccc(cc1)C[C@H]1c3cc(c(OC)cc3CCN1C)Oc1c(OC)c(OC)cc3c1[C@H](C2)N(C)CC3  inhibition (SLCO1B3; transport, inhibitor; 10 µM, added: CCK): 24.6%
CCCC[C@@H]1NC(=O)[C@H](Cc2ccc(O)cc2)NC(=O)[C@@H]2CCCN2C(=O)[C@H](CC(=O)O)NC(=O)[C@H](C)NC(=O)[C@H](Cc2ccccc2)NC(=O)[C@@H]2CSCCC(=O)N3CN(CN(C3)C(=O)CCSC[C@@H](C(=O)N[C@@H](C)C(N)=O)NC1=O)C(=O)CCSC[C@H](NC(C)=O)C(=O)N[C@@H](CC(C)(C)C)C(=O)N1CCC[C@H]1C(=O)N[C@@H](CCC(=O)O)C(=O)N[C@H](CCCCNC(=O)CCc1cn(CCOCCOCCOCCOCCOCCC(=O)N[C@H]3CSCCC(=O)N4CN5CN(C4)C(=O)CCSC[C@H](NC(=O)CNC(=O)[C@H](Cc4ccccc4)NC(=O)[C@@H]4CCCN4C3=O)C(=O)N[C@@H](CCSC)C(=O)N[C@@H](CCCCNC(=N)N)C(=O)N[C@@H](CC(=O)O)C(=O)N[C@@H](Cc3c[nH]c4ccccc34)C(=O)N[C@@H](CO)C(=O)N[C@@H]([C@@H](C)O)C(=O)N3CCC[C@H]3C(=O)N3C[C@H](O)C[C@H]3C(=O)N[C@@H](Cc3c[nH]c4ccccc34)C(=O)N[C@H](C(N)=O)CSCCC5=O)nn1)C(=O)N1CCC[C@H]1C(=O)N[C@@H](Cc1ccc(O)cc1)C(=O)N2  Emax (Tumor necrosis factor receptor superfamily member 9/Nectin-4; reporter gene, agonist, luciferase reporter; CD137 Jurkat reporter with HT-1376; 6 h, geometric mean; reference: wells without compound): 33 fold
C[C@H]1CN(c2n[nH]c3nc(N[C@H]4CC[C@H](NS(=O)(=O)CCC(F)(F)F)CC4)ncc23)CCO1  IC50 (Probable ATP-dependent RNA helicase DDX20 (DDX20, Homo sapiens, UniProt Q9UHI6); biochemical): ≥ 20 µM
CCCC[C@@H]1NC(=O)[C@H](Cc2ccc(O)cc2)NC(=O)[C@@H]2CCCN2C(=O)[C@H](CC(=O)O)NC(=O)[C@H](C)NC(=O)[C@H](Cc2ccccc2)NC(=O)[C@@H]2CSCCC(=O)N3CN(CN(C3)C(=O)CCSC[C@@H](C(N)=O)NC1=O)C(=O)CCSCCC(=O)N[C@@H](CC(C)(C)C)C(=O)N1CCC[C@H]1C(=O)N[C@@H](CCC(=O)O)C(=O)N[C@H](CCCCNC(=O)CCc1cn(CCOCCOCCOCCOCCOCCC(=O)N[C@H]3CSCCC(=O)N4CN5CN(C4)C(=O)CCSC[C@H](NC(=O)[C@@H](CC(=O)O)NC(=O)[C@H](Cc4cccc6ccccc46)NC(=O)[C@@H]4CCCN4C3=O)C(=O)N[C@@H](CCSC)C(=O)N[C@@H](CCCCNC(=N)N)C(=O)N[C@@H](CC(=O)O)C(=O)N[C@@H](Cc3c[nH]c4ccccc34)C(=O)N[C@@H](CO)C(=O)N[C@@H]([C@@H](C)O)C(=O)N3CCC[C@H]3C(=O)N3C[C@H](O)C[C@H]3C(=O)N[C@@H](Cc3c[nH]c4ccccc34)C(=O)N[C@H](C(N)=O)CSCCC5=O)nn1)C(=O)N1CCC[C@H]1C(=O)N[C@@H](Cc1ccc(O)cc1)C(=O)N2  Emax (Tumor necrosis factor receptor superfamily member 9/Nectin-4; reporter gene, agonist, luciferase reporter; CD137 Jurkat reporter with HT-1376; 6 h, geometric mean; reference: wells without compound): 39 fold
CC1(C)[C@H](C=C(Cl)Cl)[C@H]1C(=O)OCc1cccc(Oc2ccccc2)c1  enzyme contribution (CES2 human cytosolic; 0.1 µM, age 1 year): 9.07%
CCCC[C@@H]1NC(=O)[C@H](Cc2ccc(O)cc2)NC(=O)[C@@H]2CCCN2C(=O)[C@H](CC(=O)O)NC(=O)[C@H](C)NC(=O)[C@H](Cc2ccccc2)NC(=O)[C@@H]2CSCCC(=O)N3CN(CN(C3)C(=O)CCSC[C@H](NC(C)=O)C(=O)N[C@@H](CC(C)(C)C)C(=O)N3CCC[C@H]3C(=O)N[C@@H](CCC(=O)O)C(=O)N[C@H](CCCCNC(=O)CCc3cn(CCOCCOCCOCCOCCOCCC(=O)N[C@H]4CSCCC(=O)N5CN6CN(C5)C(=O)CCSC[C@H](NC(=O)[C@@H](CC(=O)O)NC(=O)[C@H](Cc5cccc7ccccc57)NC(=O)[C@@H]5CCCN5C4=O)C(=O)N[C@@H](CCSC)C(=O)N[C@@H](CCCCNC(=N)N)C(=O)N[C@@H](CC(=O)O)C(=O)N[C@@H](Cc4c[nH]c5ccccc45)C(=O)N[C@@H](CO)C(=O)N[C@@H]([C@@H](C)O)C(=O)N4CCC[C@H]4C(=O)N4C[C@H](O)C[C@H]4C(=O)N[C@@H](Cc4c[nH]c5ccccc45)C(=O)N[C@H](C(N)=O)CSCCC6=O)nn3)C(=O)N3CCC[C@H]3C(=O)N[C@@H](Cc3ccc(O)cc3)C(=O)N2)C(=O)CCSCCNC1=O  Emax (Tumor necrosis factor receptor superfamily member 9/Nectin-4; reporter gene, agonist, luciferase reporter; CD137 Jurkat reporter with HT-1376; 6 h, geometric mean; reference: wells without compound): 37 fold
O=C(O)C(F)(F)C(F)(F)C(F)(F)C(F)(F)C(F)(F)C(F)(F)C(F)(F)F  Jmax (SLCO1B3; uptake, substrate; CHO cells stably expressing SLCO1B3; 1 min, 37 °C): 2690 ± 470 pmol/min/mg protein
O=c1ccc2ncc(=O)n3c2n1C[C@H]3CN1CCC(NCc2cc3c(cn2)OCCC3)CC1  efflux ratio (ABCG2; substrate; transporter-overexpressing cell monolayers): 11 to 15
CCCCNC(=O)C1CCCN(Cc2nc(-c3ccc(Cl)cc3)oc2C)C1 (stereo not shown)  maximum response (Vero-E6; CellTiter-Glo ATP; 72 h, retest 8-point duplicates; reference: DMSO 0%, hyamine -100%, more negative, more toxic): -28.8%
N#CC[C@H](C1CCCC1)n1cc(-c2ncnc3[nH]ccc23)cn1  inhibition (ABCG2; transport, inhibitor; 100 µM, 5 (unit not given), pH 7, added: CCK-8): -3.3%
